Measured values pooled from the literature.
Values joined by “and” are separate records of one study, mostly repeats; a detail may differ. ± marks the error that the study gave.
uncharacterized protein: uncharacterized protein (Spodoptera exigua, UniProt F1CEY0)

COCCC(=O)N1CCC(Oc2ccccc2)C1 (stereo not shown)
log fold enrichment (DNA mismatch repair protein Msh6 (Homo sapiens, UniProt P52701); binding, affinity selection mass spectrometry; baseline: other proteins in batch): 0.168

Nc1ccc(C(=O)O)cc1
current density (BEST1, with wild-type BEST1 (Homo sapiens, UniProt O76090, D302A); ion current, whole-cell patch clamp; HEK293 co-expressing mutant and wild-type; concentration not given, voltage 60 mV): 5.25 pA/pF and 12.1 pA/pF and 10.1 pA/pF and 17.4 pA/pF and 11.8 pA/pF and 6.51 pA/pF

O=S(=O)(O)C1CCNCC1
normalised MST signal (SLC6A6 (Homo sapiens, UniProt P31641, G62A); binding, microscale thermophoresis; 3.91 µM, room temperature, with: 50 nM labelled protein; higher = more binding): 0.00696

COc1cc(Nc2ncc3c(n2)-c2ccc(Cl)cc2C(c2c(F)cccc2OC)=NC3)ccc1C(=O)O
remaining activity (ADRBK1; kinase activity; 1 µM): 102%

C=CC(=O)N1CCC(COCC(=O)N2CCN(c3nc(-c4cnc(N)nc4C(F)F)nc(N4CCOC[C@@H]4C)n3)CC2)CC1
remaining binding (Ribosomal protein S6 kinase alpha-6, N-terminal kinase domain (RPS6KA6, Homo sapiens, UniProt Q9UK32); KINOMEscan; 1 µM; baseline: DMSO control): 84%

CCOC(=O)C1=CCCC[C@H]1S(=O)(=O)Nc1ccc(F)cc1Cl
OD450 in LPS binding ELISA (TLR4 (Homo sapiens, UniProt O00206); antagonist, ELISA; 1 µg/mL, with: LPS; baseline: DMSO control, lower means stronger antagonism): 0.464 a.u. and 0.43 a.u. and 0.453 a.u. and 0.441 a.u.

CCCCCCCO
relative fluorescence (uncharacterized protein; binding, competitor, fluorescence displacement; 20 µM, pH 7.4, with: 1-NPN 20 µM; baseline: 1-NPN alone): 61.8%

O=c1nc(SCc2cc(F)cc(C(F)(F)F)c2)nc(SCc2csc3ccc(Cl)cc23)[nH]1
mean decatenated DNA (TOP2A (Homo sapiens, UniProt P11388); decatenation; 7.8 µM): 93.2%

CC(=O)c1ccccc1
relative fluorescence (uncharacterized protein; binding, competitor, fluorescence displacement; 20 µM, pH 7.4, with: 1-NPN 20 µM; baseline: 1-NPN alone): 69.7%

COCCN1C(=O)c2[nH]nc(-c3ccccc3O)c2C1c1ccc(F)cc1 (stereo not shown)
ligand efficiency (ADORA2A (Homo sapiens, UniProt P29274); radioligand displacement; with: [3H]ZM241385): 0.3

Nc1ncnc2c1ncn2[C@@H]1O[C@H](COP(=O)(O)OP(=O)(O)OP(=O)(O)O)[C@@H](O)[C@H]1O
normalized current (P2X purinoceptor 7 (P2rx7, Rattus norvegicus, UniProt Q64663, I214A/Q143A/R125A); ion current, agonist, two-electrode voltage clamp; Xenopus oocytes; 900 µM): 0.878 and 0.862 and 0.885

COC(=O)C(Cc1cccc(OC)c1I)NC(=O)CN(Cc1ccccc1)C(=O)OC(C)(C)C (stereo not shown)
activity (OPRK1 (Homo sapiens, UniProt P41145); binding; concentration not given): inactive

C=CC(=O)N1CCC(C(=O)NCC(=O)N2CCN(c3nc(-c4cnc(N)nc4C(F)F)nc(N4CCOCC4)n3)CC2)CC1
remaining binding (Ribosomal protein S6 kinase alpha-6, C-terminal kinase domain (RPS6KA6, Homo sapiens, UniProt Q9UK32); KINOMEscan; 1 µM): 95%

O=C(Nc1ccc(-c2ccccc2)cc1)c1cnn(-c2ccc([N+](=O)[O-])cc2)c1C(F)(F)F
selectivity ratio (PTGS2 (Homo sapiens, UniProt P35354); enzyme activity, inhibitor; baseline: COX-1 IC50 over COX-2 IC50): 0.98

CCN1CCC[C@H]1CNC(=O)c1c(O)c(Cl)cc(Cl)c1OC
log2 fold change (12-(S)-hydroxy-5,8,10,14-eicosatetraenoic acid receptor (GPR31, Homo sapiens, UniProt O00270); β-arrestin recruitment, TANGO luminescence, measured: GPR31; concentration not given; baseline: basal luminescence): -0.209

CNC1CCC(N(Cc2cccc(-c3ccncc3)c2)C(=O)c2sc3ccccc3c2Cl)CC1 (stereo not shown)
decrease of basal signal (Protein smoothened (SMO, Homo sapiens, UniProt Q99835); GTPγS binding; CHO stably expressing human SMO; concentration not given): 18 ± 2.6%

Repeated from above:
CCCCCCCO
relative fluorescence (uncharacterized protein; binding, competitor, fluorescence displacement; 20 µM, pH 7.4, with: 1-NPN 20 µM; baseline: 1-NPN alone): 61.8%

O=c1nc(SCc2cc(F)cc(C(F)(F)F)c2)nc(SCc2csc3ccc(Cl)cc23)[nH]1
mean decatenated DNA (TOP2A (Homo sapiens, UniProt P11388); decatenation; 7.8 µM): 93.2%

CC(=O)c1ccccc1
relative fluorescence (uncharacterized protein; binding, competitor, fluorescence displacement; 20 µM, pH 7.4, with: 1-NPN 20 µM; baseline: 1-NPN alone): 69.7%
